Published values gathered from unrelated publications.
A part holds a random share of what one study measured.

Study 1 — technique: protein-binding microarray; molecule type: double-stranded DNA, one strand shown; medium: in vitro; concentration: 2540 nM top; notes: 60-bp whole probe; with: salmon DNA 0.4 mg/ml; baseline: random background probes; direction: higher = stronger binding
Target: Interferon regulatory factor 3, full length, phosphomimetic (IRF3, Homo sapiens, UniProt Q14653, residues 1-427, S386D/S396D/S398D/S402D/T404D/S405D)
UniProt Q14653, sequence (whole entry, unmodified, looked up): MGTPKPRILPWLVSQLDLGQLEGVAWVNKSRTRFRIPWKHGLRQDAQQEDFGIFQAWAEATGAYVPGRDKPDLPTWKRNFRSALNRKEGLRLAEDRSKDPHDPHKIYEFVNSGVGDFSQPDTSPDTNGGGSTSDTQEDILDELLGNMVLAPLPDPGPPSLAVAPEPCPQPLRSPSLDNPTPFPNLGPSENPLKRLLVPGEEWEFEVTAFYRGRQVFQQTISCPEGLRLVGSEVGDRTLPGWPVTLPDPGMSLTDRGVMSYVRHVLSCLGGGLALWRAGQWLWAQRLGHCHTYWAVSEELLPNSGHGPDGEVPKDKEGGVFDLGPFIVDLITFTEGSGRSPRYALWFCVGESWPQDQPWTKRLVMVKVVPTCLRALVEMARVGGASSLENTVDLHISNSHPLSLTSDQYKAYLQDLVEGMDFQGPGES
For `GCCTAGCACTCAATCATTGTTTTCAGTTTGTGCTAGGTCTTGATTCGCTTGACGCTGCTG`, “fitted relative affinity” read 1.13 z-score.
`GCCTAGCACGACGATTTTAGTTTCGAGACGTGCTAGGTCTTGATTCGCTTGACGCTGCTG` — result for “fitted relative affinity”: 3.71 z-score.
Under “fitted relative affinity”, `GCCTAGCACTTAGAACTGGGTACTGGATTAGTGCTAGTCTTGATTCGCTTGACGCTGCTG` is recorded as -0.667 z-score.
`GCCTAGCACGACGAACAGGGGTATCGAGACGTGCTAGTCTTGATTCGCTTGACGCTGCTG`: “fitted relative affinity” -0.493 z-score.

Study 2 — technique: universal PBM; molecule type: double-stranded DNA, one strand shown; medium: in vitro; concentration: not given; direction: higher = stronger binding
Target: Sal-like protein 4, full length isoform B (SALL4, Homo sapiens, UniProt Q9UJQ4-2, residues 1-616)
Notes: 8-mer, flanks averaged, mean of replicates
The E-score of `AACGTATC` is reported as 0.00064.
`ACGGAGAG` has an E-score of -0.137.
With `ACATTGGA` the E-score was 0.0794.
The E-score of `GGCTGCTA` is reported as -0.0424.
`ATAAACTA` has an E-score of 0.362.
`ACCGGGAA` gave an E-score of -0.0849.
With `GGAGTAGA` the E-score was -0.0445.

Study 3 — technique: RNA Bind-n-Seq; molecule type: RNA; medium: in vitro; concentration: 200 nM; notes: whole 134-nt RNA, ends assumed; with: 150 mM KCl; baseline: input library; direction: higher = stronger binding
Target: Fragile X messenger ribonucleoprotein 1, C-terminal low-complexity region (Fmr1, Mus musculus, UniProt P35922)
Shared flanks, not repeated: GGGAGUUCUACAGUCCGACGAUC … UGGAAUUCUCGGGUGUCAAGG
`CCUGUGCUACACAUCGUAUGUACCGAAUCAAAUUUUUAAAUUUUUUUAAAUUUUUUUAAAAAAGUAUUAUGUUACGCCGUUCGGAUCUGC` has a log2 enrichment of -0.97.
The log2 enrichment of `GGGGACGGCAAAACAGAACAGAAAGGCGGAGAUAAAAAGAGGGGUGUUAAAAGACCACGAGAAGAUCAUGGCCGUGGAUAUUUUGAGUAC` is reported as 0.566.
`CACAGACCACACGCACCCACACAGACACAGAGGGAAGGGGUUGGGAUGGGGACAGGGUGCACAGCAGGGCGGGGUAGGACCCCAGCCCCU` has a log2 enrichment of 1.26.
`ACCAUGCAGGUGGGCAUCUUUGGGAAGUGGGGCAAGGGGGGGAUAGGGAGGGGGGUAACACUUUGGGAACAGGUGGUCCCAGGAAAUUUC` gave a log2 enrichment of 0.647.
`ACCAUACAGGUGGGCAUCUUUGGGAAGUGGGGCAAGGGGGGGAUAGGGAGGGGGGUAACACUUUGGGAACAGGUGGUCCCAGGUCGUUUC` has a log2 enrichment of 0.958.

Mixed results
`PhoQ, residues 284 288 289 292 302 303 NLMGRA` has a fold induction of 4.78 (PhoP, residues 12 14 15 18 19 NHFIF (Escherichia coli, UniProt P23836); Sort-seq, measured: YFP reporter; E. coli; PhoQ-PhoP variant library, with: 10 µM Mg2+; baseline: high Mg2+ state, higher = stronger signaling).

For quick reference, copied from above (study 2):
`ACGGAGAG` has an E-score of -0.137.
With `ACATTGGA` the E-score was 0.0794.
